Results from different studies.
Each line is one published result; not all experiments were run side by side. ± marks the error that the study gave.

| SMILES | test system | conditions | tissue uptake |
| --- | --- | --- | --- |
| CSCC[C@H](NC(=O)[C@H](CC(C)C)NC(=O)[C@H](Cc1c[nH]cn1)NC(=O)CNC(=O)[C@@H](NC(=O)[C@H](C)NC(=O)[C@H](Cc1c[nH]c2ccccc12)NC(=O)[C@H](CCC(N)=O)NC(=O)CCCCCCCNC(=O)CCC(=O)Nc1ccc(CNC23CNCCNCC(N)(CNCCNC2)CNCCNC3)cc1)C(C)C)C(N)=O [copper-64 labelled] | female SCID mice, PC-3 xenograft, spleen | intravenous, 0.6 MBq, 4 h | 3.19 ± 1.21 %ID/g |
| N=C(N)NCCC[C@@H]1NC(=O)[C@H](CCCCNC(=O)CNC(=O)CNC(=O)CNC(=O)CC[C@H](NC(=O)CCOCCOCCOCCOCCNC(=O)CC[C@H](NC(=O)CN2CCN(CC(=O)O)CCN(CC(=O)O)CCN(CC(=O)O)CC2)C(=O)NCCOCCOCCOCCOCCC(=O)N[C@@H](CCC(=O)NCC(=O)NCC(=O)NCC(=O)NCCCC[C@@H]2NC(=O)[C@@H](Cc3ccccc3)NC(=O)[C@H](CC(=O)O)NC(=O)CNC(=O)[C@H](CCCNC(=N)N)NC2=O)C(=O)NCC(=O)NCC(=O)NCC(=O)NCCCC[C@@H]2NC(=O)[C@@H](Cc3ccccc3)NC(=O)[C@H](CC(=O)O)NC(=O)CNC(=O)[C@H](CCCNC(=N)N)NC2=O)C(=O)NCC(=O)NCC(=O)NCC(=O)NCCCC[C@@H]2NC(=O)[C@@H](Cc3ccccc3)NC(=O)[C@H](CC(=O)O)NC(=O)CNC(=O)[C@H](CCCNC(=N)N)NC2=O)NC(=O)[C@@H](Cc2ccccc2)NC(=O)[C@H](CC(=O)O)NC(=O)CNC1=O [indium-111 labelled] | female athymic nude mice, blood | intravenous, 3 µCi, 4 h, U-87 MG glioma xenograft | 0.04 %ID/g |
| N=C(N)NCCC[C@@H]1NC(=O)[C@H](CC(=O)NC23CNCCNCC(N)(CNCCNC2)CNCCNC3)NC(=O)[C@@H](Cc2ccccc2)NC(=O)[C@H](CC(=O)O)NC(=O)CNC1=O [copper-64 labelled] | Nu/Nu mouse, male, tumour-bearing, bone | intravenous, 10 µCi, 1 h | 2.28 ± 1.44 %ID/g |
| CCCC[C@H](NC(=O)CCCCCCCNC(=O)c1ccc(NN)nc1)C(=O)N[C@H]1CC(=O)NCCCC[C@@H](C(N)=O)NC(=O)[C@H](Cc2c[nH]c3ccccc23)NC(=O)[C@H](CCCNC(=N)N)NC(=O)[C@@H](Cc2ccccc2)NC(=O)[C@H](Cc2c[nH]cn2)NC1=O [technetium-99m labelled] | C57 mouse, B16/F1 melanoma, intestines | intravenous, 0.037 MBq, 2 h | 1.85 ± 0.51 %ID |
| CSCC[C@H](NC(=O)[C@H](CC(C)C)NC(=O)[C@H](Cc1c[nH]cn1)NC(=O)CNC(=O)[C@@H](NC(=O)[C@H](C)NC(=O)[C@H](Cc1c[nH]c2ccccc12)NC(=O)[C@H](CCC(N)=O)NC(=O)CCCCCNC(=O)CNC(=O)CNC(=O)CNC(=O)CSC(C)=O)C(C)C)C(N)=O [technetium-99m labelled] | nude mouse, PC-3 xenograft, tumor | 30 min | 0.75 ± 0.15 %ID/g |
| N=C(N)NCCC[C@@H]1NC(=O)[C@H](CCCCNC(=O)CC[C@H](NC(=O)CCOCCOCCOCCOCCNC(=O)CN2CCN(CC(=O)O)CCN(CC(=O)O)CCN(CC(=O)O)CC2)C(=O)NCCCC[C@@H]2NC(=O)[C@@H](Cc3ccccc3)NC(=O)[C@H](CC(=O)O)NC(=O)CNC(=O)[C@H](CCCNC(=N)N)NC2=O)NC(=O)[C@@H](Cc2ccccc2)NC(=O)[C@H](CC(=O)O)NC(=O)CNC1=O [indium-111 labelled] | female athymic nude mice, intestine | intravenous, 3 µCi, 1 h, U-87 MG glioma xenograft | 5.99 ± 2.93 %ID/g |
| CCCC[C@H](NC(=O)CNC(=O)CNC(=O)c1ccc(NN)nc1)C(=O)N[C@H]1CC(=O)NCCCC[C@@H](C(N)=O)NC(=O)[C@H](Cc2c[nH]c3ccccc23)NC(=O)[C@H](CCCNC(=N)N)NC(=O)[C@@H](Cc2ccccc2)NC(=O)[C@H](Cc2c[nH]cn2)NC1=O [technetium-99m labelled] | C57 mouse, B16/F1 melanoma-bearing, lung | intravenous, 24 h | 0.09 ± 0.01 %ID/g |
| N=C(N)NCCC[C@@H]1NC(=O)[C@H](CCCCNC(=O)CC[C@H](NC(=O)CCOCCOCCOCCOCCNC(=O)CC[C@H](NC(=O)CN2CCN(CC(=O)O)CCN(CC(=O)O)CCN(CC(=O)O)CC2)C(=O)NCCOCCOCCOCCOCCC(=O)N[C@@H](CCC(=O)NCCCC[C@@H]2NC(=O)[C@@H](Cc3ccccc3)NC(=O)[C@H](CC(=O)O)NC(=O)CNC(=O)[C@H](CCCNC(=N)N)NC2=O)C(=O)NCCCC[C@@H]2NC(=O)[C@@H](Cc3ccccc3)NC(=O)[C@H](CC(=O)O)NC(=O)CNC(=O)[C@H](CCCNC(=N)N)NC2=O)C(=O)NCCCC[C@@H]2NC(=O)[C@@H](Cc3ccccc3)NC(=O)[C@H](CC(=O)O)NC(=O)CNC(=O)[C@H](CCCNC(=N)N)NC2=O)NC(=O)[C@@H](Cc2ccccc2)NC(=O)[C@H](CC(=O)O)NC(=O)CNC1=O [indium-111 labelled] | female athymic nude mice, intestine | intravenous, 3 µCi, 72 h, U-87 MG glioma xenograft | 1.03 ± 0.1 %ID/g |
| CCCC[C@H](NC(=O)COCCOCCNC(=O)c1ccc(NN)nc1)C(=O)N[C@H]1CC(=O)NCCCC[C@@H](C(N)=O)NC(=O)[C@H](Cc2c[nH]c3ccccc23)NC(=O)[C@H](CCCNC(=N)N)NC(=O)[C@@H](Cc2ccccc2)NC(=O)[C@H](Cc2c[nH]cn2)NC1=O [technetium-99m labelled] | C57 mouse, female, B16/F1 melanoma, bone | intravenous, 0.037 MBq, 2 h | 0.29 ± 0.14 %ID/g |

Excerpt of the above:
| SMILES | test system | conditions | tissue uptake |
| --- | --- | --- | --- |
| N=C(N)NCCC[C@@H]1NC(=O)[C@H](CCCCNC(=O)CNC(=O)CNC(=O)CNC(=O)CC[C@H](NC(=O)CCOCCOCCOCCOCCNC(=O)CC[C@H](NC(=O)CN2CCN(CC(=O)O)CCN(CC(=O)O)CCN(CC(=O)O)CC2)C(=O)NCCOCCOCCOCCOCCC(=O)N[C@@H](CCC(=O)NCC(=O)NCC(=O)NCC(=O)NCCCC[C@@H]2NC(=O)[C@@H](Cc3ccccc3)NC(=O)[C@H](CC(=O)O)NC(=O)CNC(=O)[C@H](CCCNC(=N)N)NC2=O)C(=O)NCC(=O)NCC(=O)NCC(=O)NCCCC[C@@H]2NC(=O)[C@@H](Cc3ccccc3)NC(=O)[C@H](CC(=O)O)NC(=O)CNC(=O)[C@H](CCCNC(=N)N)NC2=O)C(=O)NCC(=O)NCC(=O)NCC(=O)NCCCC[C@@H]2NC(=O)[C@@H](Cc3ccccc3)NC(=O)[C@H](CC(=O)O)NC(=O)CNC(=O)[C@H](CCCNC(=N)N)NC2=O)NC(=O)[C@@H](Cc2ccccc2)NC(=O)[C@H](CC(=O)O)NC(=O)CNC1=O [indium-111 labelled] | female athymic nude mice, blood | intravenous, 3 µCi, 4 h, U-87 MG glioma xenograft | 0.04 %ID/g |
